Published values gathered from unrelated publications.
Protocols differ between the studies behind these lines.
Cell line: HEK293

Structure (SMILES) | test | conditions | quantity | result
C[C@@H]1CC[C@@]2(OC1)O[C@H]1[C@@H](O)[C@H]3[C@@H]4CC[C@H]5C[C@@H](O[C@@H]6O[C@H](CO)[C@H](O[C@@H]7O[C@H](CO)[C@@H](O)[C@H](O[C@@H]8OC[C@@H](O)[C@H](O)[C@H]8O)[C@H]7O[C@@H]7O[C@H](CO)[C@H](O)[C@H](O[C@@H]8O[C@H](CO)[C@@H](O)[C@H](O)[C@H]8O)[C@H]7O)[C@H](O)[C@H]6O)[C@H](O)C[C@]5(C)[C@H]4CC[C@]3(C)[C@H]1[C@@H]2C | resazurin reduction | 24 h, range 0.03 to 30 µM | LD50 | 9.68 µM
O=S(=O)(C1CC1)N1CCCC2(C1)Nc1ccccc1N=C2NC1CCCC1 (centres unmarked) |  | 72 (unit not given) | CC50 | 94.5 µM
CC(C)C[C@H](NC(=O)[C@H](CC(N)=O)NC(=O)[C@H](CCCNC(=N)N)NC(=O)[C@@H](CC(C)C)NC(=O)[C@H](Cc1ccc(-c2ccccc2)cc1)NC(=O)[C@H](CC(=O)O)NC(=O)[C@H](CCCCN)NC(=O)[C@@H](CC(C)C)NC(=O)[C@H](CCCNC(=N)N)NC(=O)[C@H](CCC(N)=O)NC(=O)[C@@H](NC(=O)[C@@H](CC(C)C)NC(=O)[C@H](CCCNC(=N)N)NC(=O)[C@H](CCCCN)NC(=O)[C@H](Cc1ccc(-c2ccccc2)cc1)NC(=O)CN)C(C)C)C(=O)N[C@H](C(N)=O)C(C)C | cell viability, MTS | serum-free | LC50 | 18 µM
CC[C@H](C)[C@H](NC(=O)[C@H](CCCN)NC(=O)[C@H](CCCNC(=N)N)NC(=O)[C@@H]1CCCN1C(=O)[C@@H]1CCCN1C(=O)[C@H](CCCNC(=N)N)NC(=O)[C@@H]1CCCN1C(=O)[C@H](CCCNC(=N)N)NC(=O)[C@@H]1CCCN1C(=O)[C@H](CC(C)C)NC(=O)[C@H](Cc1ccc(O)cc1)NC(=O)[C@@H]1CCCN1C(=O)[C@@H]1CCCN1C(=O)[C@H](CCCCN)NC(=O)[C@H](CC(=O)O)NC(=O)[C@@H](N)C(C)C)C(=O)N[C@@H](Cc1ccc(O)cc1)C(=O)N[C@@H](CC(N)=O)C(=O)N[C@@H](CCCN)C(N)=O | MTT | concentration not given, DMEM/F12 with FBS | viability | not toxic
CCCCCCCCCCCC1CC(=O)N[C@@H](CO)C(=O)N[C@H](CO)C(=O)N[C@H](C)C(=O)N(C)[C@@H](C(C)C)C(=O)N[C@H](CO)C(=O)N[C@H](CCCCN)C(=O)N[C@H](CO)C(=O)N[C@@H](CCCCN)C(=O)O1 (some centres unmarked) | MTT | 3.2 mg | survival | 101%
CC(C)C[C@H](NC(=O)[C@H](CC(N)=O)NC(=O)[C@H](CCCNC(=N)N)NC(=O)[C@@H](CC(C)C)NC(=O)[C@H](Cc1ccc(-c2ccccc2)cc1)NC(=O)[C@H](CC(=O)O)NC(=O)[C@H](CCCNC(=N)N)NC(=O)[C@@H](CC(C)C)NC(=O)[C@H](CCCCN)NC(=O)[C@H](CCC(N)=O)NC(=O)[C@@H](NC(=O)[C@@H](CC(C)C)NC(=O)[C@H](CCCNC(=N)N)NC(=O)[C@H](CCCCN)NC(=O)[C@H](Cc1ccc(-c2ccccc2)cc1)NC(=O)CN)C(C)C)C(=O)N[C@H](C(N)=O)C(C)C | cell viability, MTS | serum-free | LC50 | 16 µM
CCCCCCCCCCCC1CC(=O)N[C@@H]([C@@H](C)O)C(=O)N[C@@H](Cc2ccccc2)C(=O)N[C@@H]([C@@H](C)O)C(=O)N[C@H]([C@H](C)O)C(=O)N[C@@H]([C@@H](C)O)C(=O)N[C@@H](Cc2ccccc2)C(=O)O1 (some centres unmarked) | MTT | 3.2 mg | survival | 42.9%
CC(C)C[C@H](NC(=O)[C@H](CC(C)C)NC(=O)[C@H](CCCCN)NC(=O)CNC(=O)[C@H](CC(C)C)NC(=O)CNC(=O)[C@H](CO)NC(=O)[C@H](CC(C)C)NC(=O)[C@H](CC(C)C)NC(=O)[C@H](CO)NC(=O)[C@H](CCCCN)NC(=O)[C@H](CC(C)C)NC(=O)[C@H](CCCCN)NC(=O)[C@H](CCCCN)NC(=O)[C@H](C)NC(=O)[C@H](C)NC(=O)[C@H](C)NC(=O)CNC(=O)[C@H](CO)NC(=O)[C@H](Cc1c[nH]c2ccccc12)NC(=O)[C@@H](N)CCCCN)C(=O)O | MTS | 24 h, 37 °C | TC50 | > 100 µM

Some of these lines once more:
Structure (SMILES) | test | conditions | quantity | result
CCCCCCCCCCCC1CC(=O)N[C@@H](CO)C(=O)N[C@H](CO)C(=O)N[C@H](C)C(=O)N(C)[C@@H](C(C)C)C(=O)N[C@H](CO)C(=O)N[C@H](CCCCN)C(=O)N[C@H](CO)C(=O)N[C@@H](CCCCN)C(=O)O1 (some centres unmarked) | MTT | 3.2 mg | survival | 101%
